Literature values that unrelated publications cite.
Numbers after ± are the reported error.
UniProt P22002, sequence (whole entry, looked up): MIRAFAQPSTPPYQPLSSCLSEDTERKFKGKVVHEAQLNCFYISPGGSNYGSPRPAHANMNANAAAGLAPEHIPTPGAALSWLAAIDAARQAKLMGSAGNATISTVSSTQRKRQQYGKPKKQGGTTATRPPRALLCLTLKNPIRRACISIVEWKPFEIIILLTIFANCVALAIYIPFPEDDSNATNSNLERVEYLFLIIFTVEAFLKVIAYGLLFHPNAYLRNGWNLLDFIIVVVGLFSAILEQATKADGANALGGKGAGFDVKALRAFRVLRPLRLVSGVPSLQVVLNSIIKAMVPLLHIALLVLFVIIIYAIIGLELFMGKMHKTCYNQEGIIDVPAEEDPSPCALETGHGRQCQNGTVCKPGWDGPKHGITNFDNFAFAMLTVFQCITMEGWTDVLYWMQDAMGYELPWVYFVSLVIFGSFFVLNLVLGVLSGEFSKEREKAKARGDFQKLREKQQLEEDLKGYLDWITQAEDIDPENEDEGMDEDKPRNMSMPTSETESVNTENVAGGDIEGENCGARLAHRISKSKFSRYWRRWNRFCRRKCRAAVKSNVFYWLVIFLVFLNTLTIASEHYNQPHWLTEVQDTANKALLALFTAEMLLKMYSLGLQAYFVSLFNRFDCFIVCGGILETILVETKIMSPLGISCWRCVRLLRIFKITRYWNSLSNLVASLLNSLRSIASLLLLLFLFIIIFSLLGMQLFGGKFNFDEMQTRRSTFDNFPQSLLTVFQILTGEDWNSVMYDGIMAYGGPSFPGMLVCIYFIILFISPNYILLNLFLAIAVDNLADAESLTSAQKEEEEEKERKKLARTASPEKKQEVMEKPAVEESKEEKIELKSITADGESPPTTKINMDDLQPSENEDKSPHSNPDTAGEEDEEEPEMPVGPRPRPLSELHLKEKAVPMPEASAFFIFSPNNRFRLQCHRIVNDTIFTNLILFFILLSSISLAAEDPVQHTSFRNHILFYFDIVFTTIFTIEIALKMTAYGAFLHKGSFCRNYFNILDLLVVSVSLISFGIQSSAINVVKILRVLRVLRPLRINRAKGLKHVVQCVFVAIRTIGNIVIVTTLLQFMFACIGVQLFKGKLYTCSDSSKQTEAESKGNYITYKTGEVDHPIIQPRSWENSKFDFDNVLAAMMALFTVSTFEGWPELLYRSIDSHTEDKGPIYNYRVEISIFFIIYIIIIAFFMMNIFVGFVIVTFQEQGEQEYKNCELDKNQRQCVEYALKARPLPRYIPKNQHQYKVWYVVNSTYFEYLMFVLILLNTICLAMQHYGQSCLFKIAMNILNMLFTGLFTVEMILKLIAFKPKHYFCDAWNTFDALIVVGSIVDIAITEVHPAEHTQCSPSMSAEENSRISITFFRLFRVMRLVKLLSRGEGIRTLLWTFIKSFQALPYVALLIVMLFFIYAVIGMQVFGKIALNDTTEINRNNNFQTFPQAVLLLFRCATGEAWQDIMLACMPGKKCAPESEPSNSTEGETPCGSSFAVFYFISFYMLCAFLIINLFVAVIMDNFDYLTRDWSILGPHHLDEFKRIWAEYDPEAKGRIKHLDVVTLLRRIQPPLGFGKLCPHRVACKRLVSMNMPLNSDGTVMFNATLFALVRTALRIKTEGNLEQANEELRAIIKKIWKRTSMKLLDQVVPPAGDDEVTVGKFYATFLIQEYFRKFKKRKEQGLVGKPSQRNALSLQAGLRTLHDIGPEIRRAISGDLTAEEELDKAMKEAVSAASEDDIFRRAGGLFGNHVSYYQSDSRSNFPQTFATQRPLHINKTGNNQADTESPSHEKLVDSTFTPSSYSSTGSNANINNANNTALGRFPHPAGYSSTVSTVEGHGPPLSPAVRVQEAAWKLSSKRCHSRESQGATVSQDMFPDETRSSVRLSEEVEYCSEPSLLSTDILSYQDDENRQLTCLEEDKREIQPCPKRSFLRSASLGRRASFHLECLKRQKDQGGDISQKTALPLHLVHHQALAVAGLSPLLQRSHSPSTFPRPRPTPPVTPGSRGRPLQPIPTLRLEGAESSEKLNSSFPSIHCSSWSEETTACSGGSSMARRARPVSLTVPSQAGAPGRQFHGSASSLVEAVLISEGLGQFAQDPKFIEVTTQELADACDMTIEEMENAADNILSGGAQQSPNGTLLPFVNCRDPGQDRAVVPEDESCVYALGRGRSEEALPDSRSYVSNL
UniProt P15207, sequence (whole entry, looked up): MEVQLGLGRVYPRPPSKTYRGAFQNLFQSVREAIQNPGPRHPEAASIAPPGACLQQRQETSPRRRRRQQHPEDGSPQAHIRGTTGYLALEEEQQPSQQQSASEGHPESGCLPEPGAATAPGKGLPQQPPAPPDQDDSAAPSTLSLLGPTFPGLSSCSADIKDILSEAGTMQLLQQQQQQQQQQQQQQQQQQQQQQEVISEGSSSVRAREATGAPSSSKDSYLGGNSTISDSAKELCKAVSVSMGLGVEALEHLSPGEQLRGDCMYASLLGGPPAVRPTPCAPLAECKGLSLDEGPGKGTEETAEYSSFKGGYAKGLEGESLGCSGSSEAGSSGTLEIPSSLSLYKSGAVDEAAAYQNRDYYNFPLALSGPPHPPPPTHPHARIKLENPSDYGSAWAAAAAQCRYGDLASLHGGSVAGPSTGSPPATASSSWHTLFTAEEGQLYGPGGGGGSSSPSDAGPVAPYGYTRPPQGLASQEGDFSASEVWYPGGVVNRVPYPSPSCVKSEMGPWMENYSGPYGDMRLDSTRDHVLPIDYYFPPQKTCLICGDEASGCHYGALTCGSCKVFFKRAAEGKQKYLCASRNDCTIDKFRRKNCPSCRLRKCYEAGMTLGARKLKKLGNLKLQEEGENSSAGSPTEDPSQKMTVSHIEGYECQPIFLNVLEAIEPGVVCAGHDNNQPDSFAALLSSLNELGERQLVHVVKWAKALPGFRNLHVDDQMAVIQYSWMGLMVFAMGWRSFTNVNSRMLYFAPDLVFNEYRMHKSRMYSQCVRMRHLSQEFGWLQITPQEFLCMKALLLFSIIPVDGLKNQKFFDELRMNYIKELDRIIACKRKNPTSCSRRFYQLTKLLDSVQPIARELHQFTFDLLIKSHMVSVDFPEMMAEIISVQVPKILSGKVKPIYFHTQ
UniProt P03372, sequence (whole entry, looked up): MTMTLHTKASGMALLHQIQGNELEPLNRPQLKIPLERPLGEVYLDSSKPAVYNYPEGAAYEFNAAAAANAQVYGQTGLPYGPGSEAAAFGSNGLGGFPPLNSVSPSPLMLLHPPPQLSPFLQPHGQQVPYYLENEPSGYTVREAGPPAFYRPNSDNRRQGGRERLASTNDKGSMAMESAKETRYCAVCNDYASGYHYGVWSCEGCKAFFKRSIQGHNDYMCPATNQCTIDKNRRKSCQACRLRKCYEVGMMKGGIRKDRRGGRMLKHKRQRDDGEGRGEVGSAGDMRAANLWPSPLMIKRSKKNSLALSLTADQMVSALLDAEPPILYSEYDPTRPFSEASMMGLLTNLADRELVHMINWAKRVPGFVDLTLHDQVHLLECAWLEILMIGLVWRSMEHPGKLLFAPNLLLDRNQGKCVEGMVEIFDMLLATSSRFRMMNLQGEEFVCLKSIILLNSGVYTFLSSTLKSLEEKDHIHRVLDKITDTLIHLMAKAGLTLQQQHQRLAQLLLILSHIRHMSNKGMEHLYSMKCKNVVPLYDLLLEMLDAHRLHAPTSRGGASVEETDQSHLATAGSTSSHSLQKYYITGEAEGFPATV

SMILES	target or system	test	system	setting	endpoint	value
CCCCCOc1ccc(-c2ccc(-c3ccc(C(=O)N[C@H]4C[C@@H](O)[C@@H](O)NC(=O)[C@@H]5[C@@H](O)[C@@H](C)CN5C(=O)[C@H]([C@@H](C)O)NC(=O)[C@H]([C@H](O)[C@@H](O)c5ccc(O)cc5)NC(=O)[C@@H]5C[C@@H](O)CN5C(=O)[C@H]([C@@H](C)O)NC4=O)cc3)cc2)cc1			ICU patients	200/100 mg	mean clearance	1.3 L/h
COC(=O)[C@@H]1C[C@H](OC(C)=O)C(=O)[C@H]2[C@@]1(C)CC[C@H]1C(=O)O[C@H](c3ccoc3)C[C@]21C	kappa opioid receptor M112L				Ki	73.5 ± 20.8 nM
O=C(NC(=O)c1c(F)cccc1F)Nc1cc(Cl)c(OC(F)(F)C(F)F)c(Cl)c1	aromatase	Tox21 Aro-ER-tri			IC50	840 nM
C=C[C@@H]1C[C@]1(NC(=O)[C@@H]1C[C@@H]2CN1C(=O)[C@H](C(C)(C)C)NC(=O)O[C@@H]1C[C@H]1CCCCCc1nc3ccc(OC)cc3nc1O2)C(=O)NS(=O)(=O)C1CC1	CYP2B6	inhibitor			IC50	66000 nM
c1ccc2c(c1)OCC(C1=NCCN1)O2 (stereo not drawn)	imidazoline I2 receptor	binding	central nervous system	historical reference value	Ki	8 nM
O=C(O)C(F)(F)C(F)(F)C(F)(F)C(F)(F)C(F)(F)C(F)(F)C(F)(F)C(F)(F)C(F)(F)F	Estrogen receptor (ESR1, Homo sapiens, UniProt P03372)	antagonist, beta-lactamase reporter		Tox21 screen	IC50	17400 nM
Cc1o[nH]c(=O)c1CC(N)C(=O)O (stereo not drawn)	AMPA	binding, ligand binding			Kd	28 nM
O=C1C2(Cl)C3(Cl)C4(Cl)C(Cl)(Cl)C5(Cl)C3(Cl)C1(Cl)C5(Cl)C24Cl (stereo not drawn)	Androgen receptor (Ar, Rattus norvegicus, UniProt P15207)	binding		concentration not given	activity class	active
CCN(CC)CCCC(C)Nc1ccnc2cc(Cl)ccc12 (stereo not drawn)	sigma-1 receptor	binding			Ki	100 nM
CCOC(=O)C1=C(C)NC(C)=C(C(=O)OC)C1c1cccc([N+](=O)[O-])c1 (stereo not drawn)	Voltage-dependent L-type calcium channel subunit alpha-1C (Cacna1c, Rattus norvegicus, UniProt P22002)	inhibitor		historical measurement	IC50	0.72 nM
COC(=O)C1(c2ccc(C)cc2)CC1CN1CCC(O)(c2ccccc2)CC1 (stereo not drawn)	sigma-1 receptor	binding, agonist			Ki	1.5 nM
CCN(CC)C(=O)[C@@H]1C=C2c3cccc4[nH]cc(c34)C[C@H]2N(C)C1	serotonin receptor (rat), non-selective	binding, radioligand binding	cortical membranes		Kd	7.2 nM
